Published values of several laboratories.
Protocols differ between the studies behind these lines. Several values in a cell are separate wells, animals, samples, runs or records. ± gives the spread as reported.
FURIN: Furin (FURIN, Homo sapiens, UniProt P09958)
HLA class I histocompatibility antigen, A alpha chain allele A*80:01: HLA class I histocompatibility antigen, A alpha chain, allele A*80:01 (Homo sapiens, UniProt P04439)
PTPN1: Tyrosine-protein phosphatase non-receptor type 1 (PTPN1, Homo sapiens, UniProt P18031)
MCA2: Metacaspase-2 (MCA2, Trypanosoma brucei brucei, UniProt Q585F3)
HLA class I histocompatibility antigen, A alpha chain allele A*26:03: HLA class I histocompatibility antigen, A alpha chain, allele A*26:03 (Homo sapiens, UniProt P04439)

Sequences of proteins named here, by UniProt entry; tags and fusion partners are left off. Residues count along the entry.
UniProt P09958, whole entry, looked up: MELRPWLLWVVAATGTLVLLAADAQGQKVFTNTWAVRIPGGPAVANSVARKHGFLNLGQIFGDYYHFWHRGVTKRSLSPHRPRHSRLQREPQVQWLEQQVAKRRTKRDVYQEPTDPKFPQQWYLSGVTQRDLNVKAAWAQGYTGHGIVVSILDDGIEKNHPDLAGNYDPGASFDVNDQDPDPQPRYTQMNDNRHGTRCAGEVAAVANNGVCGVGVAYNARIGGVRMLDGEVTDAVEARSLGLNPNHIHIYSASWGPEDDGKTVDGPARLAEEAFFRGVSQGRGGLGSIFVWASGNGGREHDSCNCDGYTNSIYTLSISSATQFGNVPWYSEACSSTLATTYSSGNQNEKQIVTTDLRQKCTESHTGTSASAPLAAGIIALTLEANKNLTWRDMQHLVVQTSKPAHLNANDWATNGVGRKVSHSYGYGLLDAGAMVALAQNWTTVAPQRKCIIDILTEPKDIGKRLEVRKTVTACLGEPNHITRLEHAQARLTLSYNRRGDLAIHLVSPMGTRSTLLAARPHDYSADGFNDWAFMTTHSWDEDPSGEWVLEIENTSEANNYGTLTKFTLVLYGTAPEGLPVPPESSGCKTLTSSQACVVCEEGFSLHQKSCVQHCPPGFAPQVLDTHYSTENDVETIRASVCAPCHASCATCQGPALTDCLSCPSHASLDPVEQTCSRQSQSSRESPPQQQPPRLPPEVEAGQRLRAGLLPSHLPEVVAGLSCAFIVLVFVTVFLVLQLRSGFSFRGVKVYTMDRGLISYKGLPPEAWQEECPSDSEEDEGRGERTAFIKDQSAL
UniProt P18031, 1-321 limits assumed: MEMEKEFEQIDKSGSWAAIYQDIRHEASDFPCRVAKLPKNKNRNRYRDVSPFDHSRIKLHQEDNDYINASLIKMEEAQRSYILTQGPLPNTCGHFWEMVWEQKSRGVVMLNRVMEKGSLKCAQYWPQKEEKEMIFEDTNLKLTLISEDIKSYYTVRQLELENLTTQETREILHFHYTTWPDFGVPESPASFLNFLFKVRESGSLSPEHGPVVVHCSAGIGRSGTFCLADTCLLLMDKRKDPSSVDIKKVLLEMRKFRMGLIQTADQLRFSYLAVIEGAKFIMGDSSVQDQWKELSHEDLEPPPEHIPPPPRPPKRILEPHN
UniProt Q585F3, whole entry, looked up: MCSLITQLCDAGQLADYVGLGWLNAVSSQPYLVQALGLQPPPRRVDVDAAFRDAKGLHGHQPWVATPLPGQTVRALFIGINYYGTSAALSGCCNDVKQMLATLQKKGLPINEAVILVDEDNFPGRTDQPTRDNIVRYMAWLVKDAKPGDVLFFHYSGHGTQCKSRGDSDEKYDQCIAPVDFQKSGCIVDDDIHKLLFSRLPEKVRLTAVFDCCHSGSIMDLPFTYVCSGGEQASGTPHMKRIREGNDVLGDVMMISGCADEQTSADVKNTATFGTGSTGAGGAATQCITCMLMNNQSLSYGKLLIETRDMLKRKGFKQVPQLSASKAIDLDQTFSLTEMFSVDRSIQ
UniProt P54292, whole entry: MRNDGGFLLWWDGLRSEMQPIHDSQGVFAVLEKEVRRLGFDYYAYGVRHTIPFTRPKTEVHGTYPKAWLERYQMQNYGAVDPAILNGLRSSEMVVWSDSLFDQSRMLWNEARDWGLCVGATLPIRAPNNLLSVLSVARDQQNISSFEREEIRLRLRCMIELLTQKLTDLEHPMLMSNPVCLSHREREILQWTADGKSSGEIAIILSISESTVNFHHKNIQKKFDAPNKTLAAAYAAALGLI
UniProt P30926, whole entry, looked up: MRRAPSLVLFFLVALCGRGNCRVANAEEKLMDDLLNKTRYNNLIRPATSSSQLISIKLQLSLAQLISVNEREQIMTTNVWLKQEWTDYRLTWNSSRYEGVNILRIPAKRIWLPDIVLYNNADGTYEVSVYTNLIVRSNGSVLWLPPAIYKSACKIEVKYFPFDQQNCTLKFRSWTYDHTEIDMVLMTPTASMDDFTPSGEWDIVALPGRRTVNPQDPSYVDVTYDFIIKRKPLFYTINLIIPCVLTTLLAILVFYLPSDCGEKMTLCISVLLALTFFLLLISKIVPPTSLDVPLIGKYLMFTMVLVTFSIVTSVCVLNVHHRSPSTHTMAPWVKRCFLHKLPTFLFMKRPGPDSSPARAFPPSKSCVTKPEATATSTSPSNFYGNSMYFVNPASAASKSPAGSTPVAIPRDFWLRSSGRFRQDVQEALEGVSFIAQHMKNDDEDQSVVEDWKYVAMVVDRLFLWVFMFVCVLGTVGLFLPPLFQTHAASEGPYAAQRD
UniProt P32297, whole entry, looked up: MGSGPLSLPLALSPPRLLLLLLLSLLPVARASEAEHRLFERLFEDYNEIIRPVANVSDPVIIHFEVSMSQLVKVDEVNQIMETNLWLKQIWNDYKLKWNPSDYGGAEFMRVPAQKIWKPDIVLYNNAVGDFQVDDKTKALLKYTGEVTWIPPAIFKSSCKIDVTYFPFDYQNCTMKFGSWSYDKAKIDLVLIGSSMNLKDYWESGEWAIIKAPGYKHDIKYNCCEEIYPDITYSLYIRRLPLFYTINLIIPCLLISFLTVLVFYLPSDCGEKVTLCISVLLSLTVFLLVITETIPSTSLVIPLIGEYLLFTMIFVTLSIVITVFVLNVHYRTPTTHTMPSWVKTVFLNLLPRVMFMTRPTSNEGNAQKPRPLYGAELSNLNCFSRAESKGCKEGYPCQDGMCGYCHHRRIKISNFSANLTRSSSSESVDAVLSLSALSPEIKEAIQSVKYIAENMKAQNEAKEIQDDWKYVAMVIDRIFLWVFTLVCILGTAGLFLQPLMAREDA
UniProt Q15825, whole entry M241L/F253L/V300I/V303I/V320I/I327V/R339S/K347N, looked up: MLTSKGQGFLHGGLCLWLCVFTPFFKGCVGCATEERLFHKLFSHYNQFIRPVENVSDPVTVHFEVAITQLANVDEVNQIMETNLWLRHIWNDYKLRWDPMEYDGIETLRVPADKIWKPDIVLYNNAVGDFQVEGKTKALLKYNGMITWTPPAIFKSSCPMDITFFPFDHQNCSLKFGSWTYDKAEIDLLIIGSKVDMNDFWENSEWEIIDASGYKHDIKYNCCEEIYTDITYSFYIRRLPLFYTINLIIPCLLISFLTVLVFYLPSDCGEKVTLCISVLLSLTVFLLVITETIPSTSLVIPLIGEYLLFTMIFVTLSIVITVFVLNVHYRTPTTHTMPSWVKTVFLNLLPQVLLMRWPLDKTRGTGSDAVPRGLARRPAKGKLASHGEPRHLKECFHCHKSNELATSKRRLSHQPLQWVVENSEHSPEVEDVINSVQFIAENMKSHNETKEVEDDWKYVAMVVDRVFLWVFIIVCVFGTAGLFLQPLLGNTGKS
UniProt Q2FXS9, whole entry: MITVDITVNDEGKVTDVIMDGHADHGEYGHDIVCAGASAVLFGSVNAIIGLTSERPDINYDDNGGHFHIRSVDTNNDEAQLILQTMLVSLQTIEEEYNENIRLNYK
UniProt Q5BJF2, whole entry: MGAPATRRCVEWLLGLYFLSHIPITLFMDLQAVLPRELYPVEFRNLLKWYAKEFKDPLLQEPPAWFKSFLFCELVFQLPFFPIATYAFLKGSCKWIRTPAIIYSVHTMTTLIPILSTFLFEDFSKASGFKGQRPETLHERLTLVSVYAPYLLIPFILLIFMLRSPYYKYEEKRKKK
UniProt P20035, whole entry: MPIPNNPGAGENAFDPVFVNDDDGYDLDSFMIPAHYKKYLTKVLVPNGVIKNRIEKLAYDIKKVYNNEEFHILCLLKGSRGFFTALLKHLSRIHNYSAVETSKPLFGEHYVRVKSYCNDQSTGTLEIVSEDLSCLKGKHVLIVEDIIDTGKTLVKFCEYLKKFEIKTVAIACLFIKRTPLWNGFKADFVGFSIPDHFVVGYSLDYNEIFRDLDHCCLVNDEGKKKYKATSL
UniProt P37136, 32-574 limits assumed: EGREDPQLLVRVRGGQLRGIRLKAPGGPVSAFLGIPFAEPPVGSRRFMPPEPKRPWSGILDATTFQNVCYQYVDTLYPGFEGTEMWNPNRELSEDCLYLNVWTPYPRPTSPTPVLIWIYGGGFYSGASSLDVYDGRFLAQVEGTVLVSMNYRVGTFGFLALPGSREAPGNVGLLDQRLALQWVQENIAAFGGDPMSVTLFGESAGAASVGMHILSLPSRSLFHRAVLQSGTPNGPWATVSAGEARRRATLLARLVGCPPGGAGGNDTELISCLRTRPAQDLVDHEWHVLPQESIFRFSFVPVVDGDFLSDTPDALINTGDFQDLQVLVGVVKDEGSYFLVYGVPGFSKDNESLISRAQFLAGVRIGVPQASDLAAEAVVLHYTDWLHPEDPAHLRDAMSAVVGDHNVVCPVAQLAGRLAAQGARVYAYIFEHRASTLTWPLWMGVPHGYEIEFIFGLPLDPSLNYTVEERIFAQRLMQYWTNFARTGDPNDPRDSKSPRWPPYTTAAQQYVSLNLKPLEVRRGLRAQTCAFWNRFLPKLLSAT
UniProt P56817, 46-501 limits assumed: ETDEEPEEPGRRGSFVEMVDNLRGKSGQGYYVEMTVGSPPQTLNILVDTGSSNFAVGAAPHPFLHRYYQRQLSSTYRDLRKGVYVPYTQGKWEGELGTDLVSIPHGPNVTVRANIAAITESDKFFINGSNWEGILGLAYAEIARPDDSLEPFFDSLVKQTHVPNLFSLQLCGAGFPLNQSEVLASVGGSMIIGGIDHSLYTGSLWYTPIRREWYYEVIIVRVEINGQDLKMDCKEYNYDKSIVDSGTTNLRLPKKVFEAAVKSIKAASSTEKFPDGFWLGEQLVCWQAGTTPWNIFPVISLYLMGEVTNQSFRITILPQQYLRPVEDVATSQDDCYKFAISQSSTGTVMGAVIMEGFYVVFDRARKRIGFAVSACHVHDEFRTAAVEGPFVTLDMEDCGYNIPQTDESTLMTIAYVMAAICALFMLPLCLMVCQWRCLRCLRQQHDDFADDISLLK

SMILES	target or system	test	system	conditions	how to read	endpoint	result
C[C@@H](O)[C@H](NC(=O)[C@H](CCC(N)=O)NC(=O)[C@H](CCCNC(=N)N)NC(=O)[C@H](CCCNC(=N)N)NC(=O)[C@H](CCCNC(=N)N)NC(=O)[C@H](CCCNC(=N)N)NC(=O)[C@H](CO)NC(=O)[C@H](CCC(N)=O)NC(=O)c1ccccc1N)C(=O)N1CCC[C@H]1C(=O)N1CCC[C@H]1C(=O)N[C@@H](CCC(N)=O)C(=O)NCCNc1ccc([N+](=O)[O-])cc1[N+](=O)[O-]	FURIN	substrate	–	–	relative to: with KCl over without KCl	kcat/Km ratio	0.4
CC[C@H](C)[C@H](NC(=O)[C@H](CO)NC(=O)[C@H](Cc1ccc(O)cc1)NC(=O)[C@H](CCC(N)=O)NC(=O)[C@H](CC(C)C)NC(=O)[C@@H](N)Cc1ccc(O)cc1)C(=O)N[C@@H](CO)C(=O)N[C@H](C(=O)N[C@@H](C)C(=O)O)[C@@H](C)O	HLA class I histocompatibility antigen, A alpha chain allele A*80:01	–	–	–	direction not given	z-score	0.38
O=C(N[C@H]1CCOC1=O)C1CCCC1	rhlR (Pseudomonas aeruginosa, UniProt P54292)	reporter gene, agonist, rhlI-lacZ reporter	Escherichia coli reporter strain	–	–	Emax	100%
CC[C@H](C)[C@@H]1NC(=O)[C@H](CCC(=O)O)NC(=O)[C@@H]2CCCN2C(=O)[C@H](Cc2c[nH]cn2)NC(=O)[C@H](CCCNC(=N)N)NC(=O)[C@H](C(C)C)NC(=O)[C@H](CC(N)=O)NC(=O)[C@@H]2CSSC[C@H](NC(=O)CN)C(=O)N[C@@H](CSSC[C@@H](C(N)=O)NC1=O)C(=O)N[C@@H](CO)C(=O)N[C@@H](Cc1c[nH]cn1)C(=O)N1CCC[C@H]1C(=O)N[C@@H](C(C)C)C(=O)N2	Nicotinic acetylcholine receptor alpha6/alpha3/beta4 (Homo sapiens, UniProt P30926+P32297+Q15825)	ion current, antagonist, two-electrode voltage clamp	Xenopus oocytes	human, with: ACh 300 µM	–	IC50	0.2 nM
CC(=O)N[C@@H](CC(=O)O)C(=O)N[C@H](C(=O)N[C@@H](C)C(=O)N[C@@H](CC(=O)O)C(=O)N[C@H](C(=O)N[C@@H](Cc1ccc(OP(=O)(O)O)cc1)C(=O)N[C@@H](C)C(=O)N[C@@H](C)C(N)=O)C(C)C)[C@@H](C)O	PTPN1	substrate, continuous UV	–	pH 7.4	–	kcat/Km	3.5e+06 M⁻¹ s⁻¹
CC[C@H](C)[C@H](NC(=O)[C@H](Cc1c[nH]cn1)NC(=O)c1ccccc1N)C(=O)N[C@@H](CCCNC(=N)N)C(=O)N[C@@H](CCCNC(=N)N)C(=O)N[C@@H](CCCNC(=N)N)C(=O)N[C@@H](CCCNC(=N)N)C(=O)N[C@@H](CC(=O)O)C(=O)N[C@H](C(=O)N[C@H](C(=O)N[C@H](C(=O)N[C@@H](CCC(N)=O)C(=O)NCCNc1ccc([N+](=O)[O-])cc1[N+](=O)[O-])[C@@H](C)O)C(C)C)C(C)C	FURIN	substrate	–	pH 7	–	kcat	5.5 s⁻¹
CCOC(=O)c1c(-c2ccc(Cl)cc2Cl)n(-c2nc(-c3ccc(Cl)cc3)c3c(NC(=O)c4ccccc4)nnc-3[nH]2)[nH]c1=O	K562	SRB	–	–	–	CC50	> 100000 nM
CC(C)C[C@H](NC(=O)[C@H](CCCCN)NC(=O)c1ccccc1N)C(=O)N[C@@H](CC(N)=O)C(=O)N[C@@H](CC(C)C)C(=O)N[C@@H](CCC(N)=O)C(=O)N[C@@H](Cc1ccccc1)C(=O)N[C@@H](Cc1ccccc1)C(=O)N[C@@H](C)C(=O)N[C@@H](CO)C(=O)N[C@@H](CCCCN)C(=O)N[C@@H](CCCCNc1ccc([N+](=O)[O-])cc1[N+](=O)[O-])C(=O)O	Ribosomal processing cysteine protease Prp (prp, Staphylococcus aureus, UniProt Q2FXS9)	substrate, fluorogenic peptide cleavage	2.53% DMSO	pH 7.0, ambient, with: enzyme 21.38 nM as dimer	–	Vmax	1.96 nM/s
N#Cc1c(-c2ccc(Cl)cc2Cl)n(-c2nc(-c3ccc(Cl)cc3)c3c(NC(=O)c4ccccc4)nnc-3[nH]2)[nH]c1=O	SW-620	SRB	–	–	–	CC50	> 100000 nM
CSCC[C@H](NC(=O)[C@H](C)NC(=O)[C@@H]1CCCN1C(=O)[C@H](CC(=O)O)NC(=O)[C@H](CC(=O)O)NC(=O)[C@@H](NC(=O)[C@H](CCC(=O)O)NC(=O)[C@H](CO)NC(=O)[C@@H](N)CCC(=O)O)C(C)C)C(=O)O	HLA class I histocompatibility antigen, A alpha chain allele A*80:01	–	–	–	direction not given	z-score	0.38
CC(C)C[C@H](NC(=O)[C@H](CCC(=O)O)NC(=O)[C@H](CCCNC(=N)N)NC(=O)[C@H](CCCCN)NC(=O)[C@H](CCCNC(=N)N)NC(=O)[C@H](CCCNC(=N)N)NC(=O)[C@H](CCCCN)NC(=O)[C@H](CCCNC(=N)N)NC(=O)c1ccccc1N)C(=O)N[C@@H](CCC(=O)O)C(=O)N[C@H](C(=O)N[C@@H](CCC(N)=O)C(=O)NCCNc1ccc([N+](=O)[O-])cc1[N+](=O)[O-])[C@@H](C)O	FURIN	substrate	–	–	relative to: with KCl over without KCl	kcat/Km ratio	58.8 and 59
C[C@H](NC(=O)[C@H](CCCCN)NC(=O)c1ccccc1N)C(=O)N[C@@H](CCCNC(=N)N)C(=O)N[C@@H](C)C(=O)N[C@@H](CO)C(=O)N[C@@H](C)C(=O)N[C@@H](CCC(N)=O)C(=O)NCCNc1ccc([N+](=O)[O-])cc1[N+](=O)[O-]	MCA2	enzyme activity, substrate, FRET hydrolysis	Trypanosoma brucei	pH 7.4	–	Km	0.87 µM
CC[C@H](C)[C@H](NC(=O)CNC(=O)c1ccccc1N)C(=O)N[C@@H](CCCNC(=N)N)C(=O)N[C@@H](CCCNC(=N)N)C(=O)N[C@@H](CCCCN)C(=O)N[C@@H](CCCNC(=N)N)C(=O)N[C@@H](CO)C(=O)N[C@H](C(=O)N[C@@H](CO)C(=O)N[C@@H](Cc1cnc[nH]1)C(=O)N[C@@H](CCC(N)=O)C(=O)NCCNc1ccc([N+](=O)[O-])cc1[N+](=O)[O-])C(C)C	FURIN	substrate	–	concentration not given	relative to: Ac-RVRR-MCA	relative hydrolysis rate	~30
CC(C)[C@H](NC(=O)c1ccccc1N)C(=O)N[C@@H](C)C(=O)N[C@@H](CCCNC(=N)N)C(=O)N[C@@H](CO)C(=O)N[C@@H](CO)C(=O)N[C@@H](C)C(=O)N[C@@H](CCC(N)=O)C(=O)NCCNc1ccc([N+](=O)[O-])cc1[N+](=O)[O-]	MCA2	enzyme activity, substrate, FRET hydrolysis	Trypanosoma brucei	pH 7.4	–	Km	1.2 µM
CN1C(=O)CCc2cc(CNC(C)(C)[C@@H](O)c3ccccc3)ccc21	TMEM97 (Homo sapiens, UniProt Q5BJF2)	binding	–	–	relative to: Ki σ1 over Ki σ2	selectivity ratio	> 250 fold
CC(=O)N[C@@H](CCCNC(=N)N)C(=O)N[C@H](C(=O)N[C@@H](CC(C)C)C(=O)N[C@@H](C)C(=O)N[C@@H](C)C(=O)N[C@@H](Cc1ccc(OP(=O)(O)O)cc1)C(=O)N[C@@H](CCCNC(=N)N)C(=O)N[C@@H](Cc1ccccc1)C(=O)N[C@@H](CCC(N)=O)C(=O)N[C@@H](CCCCN)C(N)=O)[C@@H](C)O	PTPN1	substrate, continuous UV	–	pH 7.4	–	kcat/Km	220000 M⁻¹ s⁻¹
O=c1[nH]cnc2c(CNCCCP(=O)(O)O)c[nH]c12	Hypoxanthine-guanine-xanthine phosphoribosyltransferase (Plasmodium falciparum, UniProt P20035)	–	–	–	relative to: Ki human HGPRT over Ki Hypoxanthine-guanine-xanthine phosphoribosyltransferase	selectivity ratio	466 fold and ~500 fold
CC(C)C[C@H](NC(=O)c1ccccc1N)C(=O)N[C@@H](CCCNC(=N)N)C(=O)N[C@@H](CCCNC(=N)N)C(=O)N[C@@H](CCCNC(=N)N)C(=O)N[C@@H](CCCNC(=N)N)C(=O)N[C@@H](CCCNC(=N)N)C(=O)N[C@@H](CC(=O)O)C(=O)N[C@@H](C)C(=O)NCC(=O)N[C@@H](CC(N)=O)C(=O)N[C@@H](CCC(N)=O)C(=O)NCCNc1ccc([N+](=O)[O-])cc1[N+](=O)[O-]	FURIN	substrate	–	pH 7	–	kcat	11.1 s⁻¹
CC[C@H](C)[C@H](NC(=O)[C@H](CCCNC(=N)N)NC(=O)[C@H](CCCCN)NC(=O)[C@H](CCCNC(=N)N)NC(=O)[C@H](C)NC(C)=O)C(=O)N[C@@H](Cc1ccc(OP(=O)(O)O)cc1)C(=O)N[C@@H](C)C(=O)N[C@@H](C)C(N)=O	PTPN1	substrate, continuous UV	–	pH 7.4	–	kcat/Km	140000 M⁻¹ s⁻¹
CC(C)C[C@H](NC(=O)[C@H](CC(C)C)NC(=O)[C@H](CCCNC(=N)N)NC(=O)[C@H](Cc1ccccc1)NC(=O)[C@@H](NC(=O)[C@@H](N)CCC(=O)O)[C@@H](C)O)C(=O)N[C@@H](CCCNC(=N)N)C(=O)N[C@@H](CO)C(=O)N[C@@H](Cc1ccccc1)C(=O)O	HLA class I histocompatibility antigen, A alpha chain allele A*26:03	–	–	–	direction not given	z-score	-1.58
COP(=O)(OC)Oc1ccc([N+](=O)[O-])cc1Cl	Ache (Rattus norvegicus, UniProt P37136)	enzyme activity, inhibitor, discontinuous Ellman	rat, postnatal day 70, rat lung homogenate	15 min, 37 °C	–	IC50	116 nM
CSCC[C@H](NC(=O)[C@H](C)NC(=O)[C@@H]1CCCN1C(=O)[C@H](CCC(N)=O)NC(=O)[C@@H]1CCCN1C(=O)[C@H](CC(=O)O)NC(=O)[C@H](Cc1c[nH]c2ccccc12)NC(=O)[C@H](C)NC(=O)[C@@H](N)CCCNC(=N)N)C(=O)O	HLA class I histocompatibility antigen, A alpha chain allele A*80:01	–	–	–	direction not given	z-score	0.38
CC[C@H](C)[C@H](NC(=O)[C@H](CCC(=O)O)NC(=O)[C@H](CCC(=O)O)NC(=O)[C@@H](NC(=O)[C@@H](N)CCCCN)[C@@H](C)O)C(=O)N[C@@H](CO)C(=O)N[C@@H](CCC(=O)O)C(=O)N[C@H](C(=O)N[C@@H](CC(N)=O)C(=O)N[C@@H](CC(C)C)[C@@H](O)CC(=O)N[C@H](C(=O)N[C@@H](C)C(=O)N[C@@H](CCC(=O)O)C(=O)N[C@@H](Cc1ccccc1)C(=O)O)C(C)C)C(C)C	Beta-secretase 1 (BACE1, Homo sapiens, UniProt P56817)	APP cleavage, inhibitor, antibody-amplified SPR	–	40 nM, 10 nM enzyme, with: immobilised APP substrate	relative to: buffer only	signal decrease	~30%
CSCC[C@H](NC(=O)CNC(=O)[C@H](C)NC(=O)[C@@H]1CCCN1C(=O)[C@H](C)NC(=O)[C@H](Cc1ccc(O)cc1)NC(=O)[C@@H](NC(=O)[C@@H](N)Cc1ccccc1)[C@@H](C)O)C(=O)N[C@@H](Cc1ccc(O)cc1)C(=O)O	HLA class I histocompatibility antigen, A alpha chain allele A*26:03	–	–	–	direction not given	z-score	-2.03
CC(=O)N[C@@H](C)C(=O)N[C@@H](Cc1c[nH]c2ccccc12)C(=O)N[C@@H](CO)C(=O)N[C@@H](Cc1ccc(OP(=O)(O)O)cc1)C(=O)N[C@@H](C)C(=O)N[C@@H](CC(=O)O)C(=O)N[C@@H](Cc1ccc(OP(=O)(O)O)cc1)C(=O)N[C@@H](C)C(=O)N[C@@H](C)C(N)=O	PTPN1	substrate	–	–	–	kcat/KM	2.35e+07 M⁻¹ s⁻¹
CC[C@H](C)[C@H](N)C(=O)N[C@@H](CO)C(=O)N[C@@H](CC(C)C)C(=O)N[C@@H](CCC(N)=O)C(=O)N[C@@H](CCC(=O)O)C(=O)N[C@H](C(=O)N[C@@H](Cc1ccccc1)C(=O)N[C@H](C(=O)N[C@@H](CCSC)C(=O)O)[C@@H](C)O)C(C)C	HLA class I histocompatibility antigen, A alpha chain allele A*80:01	–	–	–	direction not given	z-score	0.38
CC[C@H](C)[C@H](NC(=O)[C@H](CC(=O)O)NC(=O)[C@H](CC(=O)O)NC(=O)[C@H](Cc1ccc(OP(=O)(O)O)cc1)NC(=O)[C@H](C)NC(=O)[C@H](C)NC(C)=O)C(=O)N[C@@H](CC(=O)O)C(=O)N[C@@H](CCC(=O)O)C(N)=O	PTPN1	substrate	–	pH 7.4, catalytic domain	–	kcat	37 ± 2 s⁻¹

Excerpt of the above:
SMILES	target or system	test	system	conditions	how to read	endpoint	result
N#Cc1c(-c2ccc(Cl)cc2Cl)n(-c2nc(-c3ccc(Cl)cc3)c3c(NC(=O)c4ccccc4)nnc-3[nH]2)[nH]c1=O	SW-620	SRB	–	–	–	CC50	> 100000 nM
CSCC[C@H](NC(=O)[C@H](C)NC(=O)[C@@H]1CCCN1C(=O)[C@H](CC(=O)O)NC(=O)[C@H](CC(=O)O)NC(=O)[C@@H](NC(=O)[C@H](CCC(=O)O)NC(=O)[C@H](CO)NC(=O)[C@@H](N)CCC(=O)O)C(C)C)C(=O)O	HLA class I histocompatibility antigen, A alpha chain allele A*80:01	–	–	–	direction not given	z-score	0.38
